Measurements of several laboratories.
Protocols differ between the studies behind these lines. ± marks the error that the study gave.
Target: Cholinesterase (BCHE, Equus caballus, UniProt P81908)
Chain of UniProt P81908 (whole entry, looked up): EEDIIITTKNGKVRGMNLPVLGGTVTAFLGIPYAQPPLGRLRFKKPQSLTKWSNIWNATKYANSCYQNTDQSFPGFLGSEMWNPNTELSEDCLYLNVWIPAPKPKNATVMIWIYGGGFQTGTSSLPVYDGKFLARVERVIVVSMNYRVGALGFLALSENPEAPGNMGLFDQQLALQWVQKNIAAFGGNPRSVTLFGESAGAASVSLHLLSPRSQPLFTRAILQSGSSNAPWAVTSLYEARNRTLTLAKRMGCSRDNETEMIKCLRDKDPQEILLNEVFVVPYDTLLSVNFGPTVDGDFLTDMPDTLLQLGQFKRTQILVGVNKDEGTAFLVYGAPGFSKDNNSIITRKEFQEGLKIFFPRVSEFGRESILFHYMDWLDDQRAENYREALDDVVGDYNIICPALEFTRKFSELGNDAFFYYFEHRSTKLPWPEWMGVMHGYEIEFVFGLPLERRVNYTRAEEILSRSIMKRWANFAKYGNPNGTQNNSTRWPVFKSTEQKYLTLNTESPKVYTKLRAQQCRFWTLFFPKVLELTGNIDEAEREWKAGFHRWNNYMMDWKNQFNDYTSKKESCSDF
Mode: inhibitor

SMILES | effect on | technique | medium | tested at | with | quantity | result
COC(=O)C1=CO[C@@H](O)[C@@H]2C(Cn3cc(-c4ccc(OC)cc4)nn3)=CC[C@H]12 | – | – | horse serum BuChE | 10000 µM | – | inhibition | 98.69 ± 0.24%
FC(F)(F)c1cccc(Nc2c3c(nc4ccccc24)CCCC3)c1 | enzyme activity | – | – | 50 µM | – | inhibition | -132%
COC(=O)C1=CO[C@@H](OC(C)=O)[C@@H]2C(Cn3cc(CCBr)nn3)=CC[C@H]12 | enzyme activity | Ellman Lineweaver-Burk | – | – | butyrylthiocholine iodide | Ki | 30 µM
Cc1ccc(Nc2c3c(nc4ccccc24)CCCC3)cc1 | enzyme activity | – | – | 50 µM | – | inhibition | -1.24%
O=C(/C=C/c1ccccc1Br)c1cc2ccccc2oc1=O | enzyme activity | – | – | 10 µM | – | remaining activity | 62.1%
COc1ccc2c(c1OC)CN1CCc3cc(O)c(O)cc3[C@@H]1C2 | enzyme activity | Ellman | – | up to 0.1 µg/mL | – | IC50 | inactive
Cc1cccc(Nc2c3c(nc4ccccc24)CCC(C)C3)n1 (centres unmarked) | enzyme activity | – | – | 100 µM | – | inhibition | -38.8%
COC(=O)C1=CO[C@@H](OC(C)=O)[C@@H]2C(Cn3cc(CCCO[Si](c4ccccc4)(c4ccccc4)C(C)(C)C)nn3)=CC[C@H]12 | – | – | horse serum BuChE | 10000 µM | – | inhibition | 22.3 ± 0.52%
O=C(/C=C/c1ccccc1F)c1cc2ccccc2oc1=O | enzyme activity | – | – | 10 µM | – | remaining activity | 75%
COC(=O)C1=CO[C@@H](OC(C)=O)[C@@H]2C(Cn3cc(C(O)(c4ccccc4)c4ccccc4)nn3)=CC[C@H]12 | – | – | horse serum BuChE | 10000 µM | – | inhibition | 27.14 ± 0.09%
O=C(/C=C/c1cccc(Cl)c1)c1cc2ccccc2oc1=O | enzyme activity | – | – | 10 µM | – | remaining activity | 55.8%
Clc1ccc(Nc2c3c(nc4ccccc24)CCCC3)cc1 | enzyme activity | – | – | 100 µM | – | inhibition | -54.3%
O=C(/C=C/c1ccc(Cl)cc1)c1cc2ccccc2oc1=O | enzyme activity | – | – | 10 µM | – | remaining activity | 69.9%
Cc1cccnc1Nc1c2c(nc3ccccc13)CCCC2 | enzyme activity | – | – | 50 µM | – | inhibition | 5.56%
COC(=O)C1=CO[C@@H](O)[C@@H]2C(Cn3cc(CCCO[Si](c4ccccc4)(c4ccccc4)C(C)(C)C)nn3)=CC[C@H]12 | – | – | horse serum BuChE | 10000 µM | – | inhibition | 35.42 ± 0.2%
COc1ccc2c(c1OC)C(=O)c1nccc3cc4c(c-2c13)OCO4 | enzyme activity | Ellman | – | up to 0.1 µg/mL | – | IC50 | inactive
CC1CCc2nc3ccccc3c(Nc3ccc4ccccc4n3)c2C1 (centres unmarked) | enzyme activity | – | – | 100 µM | – | inhibition | -135%
COc1cc2c(cc1OC)-c1cc3ccc(OC)c(OC)c3c[n+]1CC2 | enzyme activity | Ellman | – | up to 0.1 µg/mL | – | IC50 | inactive
COC(=O)C1=CO[C@@H](OC(C)=O)[C@@H]2C(Cn3cc(COCc4ccc(OC)c(OC)c4)nn3)=CC[C@H]12 | – | – | horse serum BuChE | 10000 µM | – | inhibition | 35.99 ± 0.29%
O=S(=O)(F)CCc1cn(-c2ccc(-c3ccccc3)cc2)nn1 | – | Ellman | – | 20 µM | – | inhibition | 53.6%

Excerpt of the above:
SMILES | effect on | technique | medium | tested at | with | quantity | result
COc1cc2c(cc1OC)-c1cc3ccc(OC)c(OC)c3c[n+]1CC2 | enzyme activity | Ellman | – | up to 0.1 µg/mL | – | IC50 | inactive
COC(=O)C1=CO[C@@H](OC(C)=O)[C@@H]2C(Cn3cc(C(O)(c4ccccc4)c4ccccc4)nn3)=CC[C@H]12 | – | – | horse serum BuChE | 10000 µM | – | inhibition | 27.14 ± 0.09%
COC(=O)C1=CO[C@@H](OC(C)=O)[C@@H]2C(Cn3cc(CCCO[Si](c4ccccc4)(c4ccccc4)C(C)(C)C)nn3)=CC[C@H]12 | – | – | horse serum BuChE | 10000 µM | – | inhibition | 22.3 ± 0.52%
